{"data": "Experimental data collected from several papers", "BCHE": "Cholinesterase (BCHE, Equus caballus, UniProt P81908)", "note": "Protocols differ between the studies behind these lines. Numbers after ± are the reported error."}
{"Structure (SMILES)": "O=C(Cc1c(F)c(F)c(F)c(F)c1F)N[C@H]1CCOC1=O", "target or system": "HTH-type quorum-sensing regulator RhlR (rhlR, Pseudomonas aeruginosa, UniProt P54292)", "test": "reporter gene, antagonist", "system": "Escherichia coli reporter strain", "setting": "100 µM, with: 10 µM BHL", "scale": "relative to: untreated", "quantity": "inhibition", "result": "66%"}
{"Structure (SMILES)": "CCCC[C@H](NC(=O)CNC(=O)CNC(=O)c1ccc(NN)nc1)C(=O)N[C@H]1CC(=O)NCCCC[C@@H](C(N)=O)NC(=O)[C@H](Cc2c[nH]c3ccccc23)NC(=O)[C@H](CCCNC(=N)N)NC(=O)[C@@H](Cc2ccccc2)NC(=O)[C@H](Cc2c[nH]cn2)NC1=O [technetium-99m labelled]", "system": "C57 mouse, B16/F1 melanoma-bearing", "setting": "intravenous, 0.5 h", "scale": "relative to: tumour over kidney", "quantity": "tissue uptake ratio", "result": 1.23}
{"Structure (SMILES)": "C[C@@]12CC[C@H]3[C@@H](CCC4=CC(=O)C=C[C@@]43F)[C@@H]1CCC2=O", "target or system": "Aldo-keto reductase family 1 member C3 (AKR1C3, Homo sapiens, UniProt P42330)", "test": "enzyme activity, inhibitor, absorbance", "setting": "10 µM, pH 9", "quantity": "inhibition", "result": "24.1%"}
{"Structure (SMILES)": "COC(=O)C1=CO[C@@H](OC(C)=O)[C@@H]2C(Cn3cc(COCc4ccccc4)nn3)=CC[C@H]12", "target or system": "BCHE", "test": "inhibitor", "system": "horse serum BuChE", "setting": "10000 µM", "quantity": "inhibition", "result": "39.26 ± 0.18%"}
{"Structure (SMILES)": "N=C(N)NCCC[C@@H]1NC(=O)[C@H](CCCCNC(=O)CNC(=O)CNC(=O)CNC(=O)CC[C@H](NC(=O)CCOCCOCCOCCOCCNC(=O)CC[C@H](NC(=O)CN2CCN(CC(=O)O)CCN(CC(=O)O)CCN(CC(=O)O)CC2)C(=O)NCCOCCOCCOCCOCCC(=O)N[C@@H](CCC(=O)NCC(=O)NCC(=O)NCC(=O)NCCCC[C@@H]2NC(=O)[C@@H](Cc3ccccc3)NC(=O)[C@H](CC(=O)O)NC(=O)CNC(=O)[C@H](CCCNC(=N)N)NC2=O)C(=O)NCC(=O)NCC(=O)NCC(=O)NCCCC[C@@H]2NC(=O)[C@@H](Cc3ccccc3)NC(=O)[C@H](CC(=O)O)NC(=O)CNC(=O)[C@H](CCCNC(=N)N)NC2=O)C(=O)NCC(=O)NCC(=O)NCC(=O)NCCCC[C@@H]2NC(=O)[C@@H](Cc3ccccc3)NC(=O)[C@H](CC(=O)O)NC(=O)CNC(=O)[C@H](CCCNC(=N)N)NC2=O)NC(=O)[C@@H](Cc2ccccc2)NC(=O)[C@H](CC(=O)O)NC(=O)CNC1=O [indium-111 labelled]", "system": "female athymic nude mice, kidney", "setting": "intravenous, 3 µCi, 0.5 h, U-87 MG glioma xenograft", "quantity": "tissue uptake", "result": "10.7 ± 2.13 %ID/g"}
{"Structure (SMILES)": "CC(C)[C@H]1NC(=O)[C@H](CO)NC(=O)c2cc3cc(c2)C(=O)NC[C@H](NC(=O)[C@H](Cc2c[nH]cn2)NC(=O)[C@H](Cc2ccc(C(F)(F)P(=O)(O)O)cc2)NC(=O)[C@@H]2CCCN2C1=O)C(=O)N[C@@H](Cc1ccccc1)C(=O)N[C@@H](Cc1ccc2ccccc2c1)C(=O)N[C@@H](CCCNC(=N)N)C(=O)N[C@@H](CCCNC(=N)N)C(=O)N[C@@H](CCCNC(=N)N)C(=O)N[C@@H](CCCNC(=N)N)C(=O)N[C@H](C(=O)N[C@@H](CCCCN)C(N)=O)CNC3=O", "target or system": "Receptor-type tyrosine-protein phosphatase O (Homo sapiens, UniProt Q16827)", "test": "enzyme activity, inhibitor, absorbance", "setting": "1 µM", "quantity": "inhibition", "result": "≤ 10%"}
{"Structure (SMILES)": "COc1ccc(Nc2c3c(nc4ccccc24)CCC(C)C3)nc1 (stereo not drawn)", "target or system": "BCHE", "test": "enzyme activity, inhibitor", "setting": "50 µM", "quantity": "inhibition", "result": "-112%"}
{"Structure (SMILES)": "O=C(CN1CCN(c2cc3c(cc2F)c(=O)c(C(=O)O)cn3C2CC2)CC1)Nc1ccc(Cl)cc1", "target or system": "DNA topoisomerase 1 (TOP1, Homo sapiens, UniProt P11387)", "test": "enzyme activity, inhibitor", "setting": "100 µM", "quantity": "inhibition", "result": "24.5%"}
{"Structure (SMILES)": "Clc1ccc2nc3c(c(Nc4ccc5ccccc5n4)c2c1)CCCC3", "target or system": "BCHE", "test": "enzyme activity, inhibitor", "setting": "50 µM", "quantity": "inhibition", "result": "-137%"}
{"Structure (SMILES)": "N=C(N)NCCC[C@@H]1NC(=O)[C@H](CCCCNC(=O)CCOCCOCCOCCOCCNC(=O)CN2CCN(CC(=O)O)CCN(CC(=O)O)CCN(CC(=O)O)CC2)NC(=O)[C@@H](Cc2ccccc2)NC(=O)[C@H](CC(=O)O)NC(=O)CNC1=O [indium-111 labelled]", "system": "female athymic nude mouse", "setting": "intravenous, 3 µCi, 24 h, U-87 MG glioma xenograft", "scale": "relative to: tumour over muscle", "quantity": "tumour to muscle ratio", "result": "7.9 ± 1.41"}
{"Structure (SMILES)": "COc1ccnc(Nc2c3c(nc4ccccc24)CCC(C)C3)c1 (stereo not drawn)", "target or system": "BCHE", "test": "enzyme activity, inhibitor", "setting": "100 µM", "quantity": "inhibition", "result": "-61.4%"}
{"Structure (SMILES)": "CCN(Cc1ccccc1)C(=O)CCc1nc(CN2CCN(C(=O)Cc3ccc(OC)c(OC)c3)CC2)no1", "target or system": "Potassium voltage-gated channel subfamily KQT member 5 (KCNQ5, Homo sapiens, UniProt Q9NR82)", "test": "potassium current, whole-cell patch clamp", "system": "transfected cells", "setting": "10 µM", "quantity": "activation V1/2", "result": "-68.2 mV"}
{"Structure (SMILES)": "C[C@@](O)(C(F)F)[C@H](NC(=O)c1ccc(C#CC#CC2CC2)cc1)C(=O)NO", "target or system": "Interstitial collagenase (MMP1, Homo sapiens, UniProt P03956)", "test": "enzyme activity, inhibitor", "setting": "30 µM", "quantity": "inhibition", "result": "≤ 30%"}
{"Structure (SMILES)": "CCCCCn1cc(C(=O)c2ccc3ccccc3c2)c2ccccc21", "target or system": "Cannabinoid receptor 2 (CNR2, Homo sapiens, UniProt P34972, I110L)", "test": "Gαi1 engagement, agonist, BRET", "scale": "relative to: reference agonist at wild-type CB2", "quantity": "Emax", "result": "66.5 ± 6.5%"}
{"Structure (SMILES)": "CC(=O)NC(Cc1ccc(Br)c(Cl)c1)C(=O)N[C@@H](C)C(=O)N1CCC[C@H]1C(=O)N1CCC[C@H]1C(=O)N[C@@H](CCC(=O)O)C(=O)N[C@@H](Cc1c[nH]cn1)C(=O)N[C@@H](CO)C(=O)N[C@H](C(=O)N[C@@H](C)C(N)=O)[C@@H](C)OP(=O)(O)O (stereo partly drawn)", "target or system": "Mitogen-activated protein kinase 8 (MAPK8, Homo sapiens, UniProt P45983)", "test": "enzyme activity, inhibitor", "setting": "10 µM", "quantity": "inhibition", "result": "0.32%"}
{"Structure (SMILES)": "OC[C@H]1O[C@@H](Oc2cccc(-c3ccccc3)c2)[C@H](O)[C@@H](O)[C@H]1O", "target or system": "Adhesin FmlH, lectin domain (Escherichia coli, UniProt Q1RBS0)", "test": "binding to desialylated mucin, ELISA competition", "system": "UPEC UTI89", "setting": "100 µM", "quantity": "inhibition", "result": "57%"}
{"Structure (SMILES)": "CN[C@](C)(C[18F])C(=O)O", "target or system": "DU-145 tumour model", "system": "host not given, liver", "setting": "1 h, tumour-bearing", "quantity": "tracer uptake", "result": "4 %ID/g"}
{"Structure (SMILES)": "C=Cc1cc(OC)c2c(c1)c(=O)oc1c2cc(OC)c2c(O)ccc([C@@H]3O[C@H](C)[C@H](O)[C@@](C)(O)[C@H]3O)c21", "target or system": "Bifunctional protein GlmU (Staphylococcus aureus, UniProt Q5HIH6)", "test": "acetyltransferase activity, inhibitor, DTNB colorimetric", "setting": "12.5 µM", "quantity": "inhibition", "result": "62%"}
{"note": "Excerpt of the above:"}
{"Structure (SMILES)": "Clc1ccc2nc3c(c(Nc4ccc5ccccc5n4)c2c1)CCCC3", "target or system": "BCHE", "test": "enzyme activity, inhibitor", "setting": "50 µM", "quantity": "inhibition", "result": "-137%"}
